Measured values of several laboratories.
Each numbered part is a random draw from the data of one study; scales do not carry over between parts.

Set 1 — method: RNA Bind-n-Seq; form: RNA; medium: in vitro; concentration: 100 nM; relative to: input RNA pool; reading: higher = stronger binding
Target: RING finger protein unkempt homolog, zinc fingers 1-6, SBP tag (UNK, Homo sapiens, UniProt Q9C0B0, residues 30-357)
UniProt Q9C0B0, sequence (30-357, looked up): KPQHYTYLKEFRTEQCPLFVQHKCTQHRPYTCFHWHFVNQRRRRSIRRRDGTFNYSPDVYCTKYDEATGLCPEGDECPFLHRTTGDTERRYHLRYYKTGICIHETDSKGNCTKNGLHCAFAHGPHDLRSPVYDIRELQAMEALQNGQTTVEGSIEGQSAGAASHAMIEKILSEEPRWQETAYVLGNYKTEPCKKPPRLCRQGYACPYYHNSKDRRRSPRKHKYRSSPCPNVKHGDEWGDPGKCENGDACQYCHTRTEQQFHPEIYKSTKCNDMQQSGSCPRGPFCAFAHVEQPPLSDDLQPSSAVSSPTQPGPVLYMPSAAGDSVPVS
Notes: RNA with constant flanks, vertebrate orthologous sites, ends assumed
Constant ends, left off below: GGGAGUUCUACAGUCCGACGAUC … CAACAGAGGAUUGAGCAUCA
Oligonucleotide	bound/input enrichment [ratio]
GUCCCUCAGUGACAGCAUGCCGUCUGUAGCUGAUUCCCACUCAAGUCACUUUUCUGAAUUCAGUUGUUCUGAUCUAGAAAGCAUGAAAACUUCGUGUAGUCAUGGUUCCAGUGAUUAUCA	0.191
CUCUCUGAGCGAUAGUAUUCCAUCUGUAGCAGAUUCGCACUCCAGCCAUUUCUCUGAGUUCAGUUGCUCAGAUAUGGAAAGUAUGAAAACUUCCUGUAGCCAUGGUUCCAGCGACUAUCA	0.277
AUCCCUCAGUGACAGUAUGCCAUCUGUAGCUGAUUCCCACUCUAGUCAUUUUUCUGAAUUUAGUUGUUCUGACCUAGAAAGCAUGAAAACUUCUUGUAGUCAUGGUUCCAAUGAUUAUCA	3.14
GCUGUGGGAAACGAGCUUUGCUUUUAUAUAUAUAUAUAUAUAUAUAUAUAUAUAUUUAAAUAGGAUACUUUUAUAUGAUGGGUGCUUUGAGUGUGAAUGCAGCAGGCUCUAUCUCAGAGG	1.64
CAGCAGAUUCUCUCAUAGGGAGAGCUGCACACAUUGCUGUUCUUGAUUCAGAAAUAUUUCUAGAGAAGUUCUUUCUUGUUGCUGCCCUGAAGUACUUUCAGUAGAGAAGAGCAUCGUAAG	0.31
AAAGAAAAAAUCAGUCCUAUAUAAUGAUUGAUCCCAUAAUCAAAAUCCCUAGCAAUCUAUUCGAAAUCUUACUUUUCUUACUCAAGUUCAAUGUUUUGGUCAUAAUUAGUUCACAAUUAA	2.18
GUGUUGUGUACAGGGCAUUCUCUGUACUAGUUUGUUGUGGUUAUAAAACAGUUAGCAAAGCAGCCUACAUUUGUAUUUAUUUUCUAUUCCAUACUUCUGUGCCCCAUGUGUUUUUUCUUU	1.47
AUUCAAACCUGUGGUGCCCUGGCCCCAUGUGGAAGGGGUGGAAGUGGACUUGGAGUCUAUUAGAAGAAAAAACAAAGCCAAAAAUGAACAAGAGCAUCAAGCUGGGGGUAUCAACCAGCA	0.402
UUCAGGCACAACUGACUGGUUCACAGCAUUCCUUACCUAGUUACUUUUCAAAUGCAAGUGUAGCUGAUUUUCAGGACACAACCAGGCAGCCAUCUUUAUCUUGUAAUCCAGUUGGAGAUU	2.32
CAGCUGAUUCACUCAUUGGGAGAGCUGCACAUAUAGCCGUUCUUGAUUCAGAAAUAUUUUUAGAGAAAUUCUUUCUGGUUGCUGCCCUCAAGUAUUUCCAAUAGGAUAAAAACAUUGUUA	1.02
UUGGGACCAGCUCUCCAAAUAGGAAUAGUAGUAAAAAAAAUAAGCAAAAUGAUACUUGUAUAGAAAAAACGGAAGUUAAAUCAUGCAAGGUAAAUCCUGCCAGUGUUCCAGGCCCUAAAG	1.27

Set 2 — method: competition protein-binding microarray; form: double-stranded DNA, one strand shown; medium: in vitro; concentration: 2 µM; with: Cbf1 competitor, 0.05 µM; reading: higher = stronger binding; constant ends, left off below: … GTCTTGATTCGCTTGACGCTGCTG
Target: Phosphate system positive regulatory protein PHO4, full length, GST-tagged (PHO4, Saccharomyces cerevisiae, UniProt P07270, residues 1-312)
Notes: whole 60-bp probe, lowest competitor level
Target sequence (chain): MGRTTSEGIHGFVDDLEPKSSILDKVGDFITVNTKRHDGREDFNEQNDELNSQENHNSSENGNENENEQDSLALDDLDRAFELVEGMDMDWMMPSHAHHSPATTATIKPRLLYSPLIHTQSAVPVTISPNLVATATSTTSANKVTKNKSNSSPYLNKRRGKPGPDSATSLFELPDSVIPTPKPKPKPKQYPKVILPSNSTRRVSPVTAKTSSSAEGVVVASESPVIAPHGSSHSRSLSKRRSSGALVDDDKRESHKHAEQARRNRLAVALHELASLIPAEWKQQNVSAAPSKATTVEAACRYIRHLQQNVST
Oligonucleotide	fluorescence intensity [a.u.]
AAAGTCTGCGACAATCACGTGCTAAAGCTGGTCTCA	16000
TTTCTGAGCGCCTACCACGTGGAGAGAGCTAAGTGC	18100
CTTTCCCGATCTTGACATGTGGGTGTAGCACATTTG	11800
TCTCTGGCCCGAAACCTCGTGTTGGTACAAATCCTC	10000
CAATCTTATCATTGCCACGTGCAAAAGCAACATCTT	18400
GCTGCAAGATTAGTCTATGTGACGGTGCCTTTTTTG	3680
CATACCCAACCTTGCATTGTGGGTGAAGATATTTGT	6090
CGGGGTTAAGTTTGTCACGTCACTTGCTTGCAGCAG	4360
TTTTACTGCAGAAAGCACGTGGAGGATCTGCTTCAT	17400
AAAATCACTTTCCATCACGTGCCGAGGGTGGAACGC	19400
CTTCTGTAAATTTTTCACGTGAGTTGACGCGCCCCG	9780
TTTCGATCTTCCCATCACGCATAGGGTTTTGAGCTT	5710
AAAGCCTACGCGAGTCACGTTCCAGGAAGATGAAGG	10400
CTAACGAAGGTTTTTCACGTGGCCTACAAGCCAAGT	13100
AAAGCGGTAATTTGCAGTGTGGGTGCAGATATCTAT	5470
GGTAAATCACCTATAGACGTGCGATGCAATAACCCT	5840
TCTGGCTTGCGCGGCCTCGTGCCAGTAAGTAGAAAA	11500
CTTTCCCGATCTTGAAGGGTGGGTGTAGCACATTTG	4740
TTAAGCCAAATTTAGCACATGCAGTGGCAGTGGCAA	9390

Set 3 — method: RNA Bind-n-Seq; form: RNA; medium: in vitro; concentration: 365 nM; relative to: no-protein control; reading: higher = stronger binding
Target: RNA binding protein fox-1 homolog 2, RRM domain, GST-SBP tag (RBFOX2, Homo sapiens, UniProt O43251-10, residues 100-194)
Notes: natural RNA segment, single round, ends assumed
Constant ends, left off below: GGGAGUUCUACAGUCCGACGAUC … UGGAAUUCUCGGGUGCCAA
Target sequence (chain): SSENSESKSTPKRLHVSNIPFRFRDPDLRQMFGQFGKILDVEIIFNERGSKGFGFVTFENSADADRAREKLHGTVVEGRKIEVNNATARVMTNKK
Oligonucleotide	RBNS enrichment (R)
GAUUCUCUGAAAAUACUUUGCAGUUCCUUGUGUCUUAAAAAAACACAAAAACAAAAACCAGAACUAGUCAGAUUGAAACCAUACUGUUCCUCCAGAGCGGCGUUAGACAG	0.31
UGAUCCCAGCACUUGGGAGGCAGAGGCAGGCGGAUUUUUGAGUUUGAGACCAGCCUGAUCCAUAGAGUGAGUUCCAGGACAGCCAGGUUUAUACAGAGAAACCCUGUCUU	0.73
UGGGCAGUGCUGGCCUGUCUGACGUGCUGCCCUUGGCCUCCUUGCUCUCCACGUGUGGAAGCGCAUCUGCUUUCCUUGCUGUCUGUGCAAAUGCUGAACAAGGAGACAGA	3.36
UCCUUGAAGAAUGGGUUCUGUGUCUAAUCCUGAAACAAAGAAAACUACAAGCUGGAGUGUAGGAAUUGACUAUAGCAAUUUGAUACAUUUUUAAAGCUGCUUCCUGUUUG	0.513
CUUUUGCCCUCUCCUCUCCCCACCCCCCAGAAACAGAUGACGUUGUACAAUAAAGGACUUUGCGAGUCCAUGGGUGCCUGCAGCCCCCAUGCAUGCAGUCAGGUCCUCAG	0.894
UAAUGAUUGCAAUCAUACAGUGCUUAAUAUGUGCCAGACACAGUGCCAAGGGCUUGCAUGCAUUAUCUCCUUUAAUCCACAAGCAGCUCUGGCGAGGUGGUAUUAGCCCA	2.27
GAGUCUAGCCUGGGAGCCAGGAUACUGGGGUCCUUUUCCCACUCUUCCACUGACUUGCUGUGUGACCUUAGGAAGUCUCUGCCCCUCUCUCAGCCUCAGUGUCCCGAGGG	0.516
UUCUAAGCCAGAAGCAAACAAGAAUUACUGAAAUCUACCCCAUGAAUACUUGGAAGGCAGUAAUUGUGAGUGACACCUCAGUUCAUCAACCCCUUAAUAAUAUCAGCUUA	0.387
CCUAGUUGUUGCAGAAUCCUUCCCCAGGAGCCCCUUCACUCCUGCUGGGGUAGUCACCAGCUUACUGUGGGUACAGGGCUCUUAGCUUGUAUGUGUUCUCCCUUCCUUGA	0.453
UUUAUUUUAAGAGUUAUUUCAUUUUCAUCCUAAGAGUGAUGGGAGAGAAAUGUCCAAAAGAGAUCUGCUGAUCUGCUGAGAGUUUCAAACAAACAAAAAAAUAAUCUCUA	0.468
AAACUAGACUUACAGGUAGGCUAGAUCAGAACGUUAACAUAUGAACCUGCAGAAAUCUGGUAAGACUUAAAUUCAGUGUGAGGAAUAACUCUAGUUCUCUCCUAUGAGCA	0.828
GUAGCCUAAAAGACAAUUUUCCUUGGAACACAUAAGAACUGUGCAGUAGCCGUUUGUGGUUUAAAGCAAACAUGCAAGAUGAACCUGAGGGAUGAUAGAAUACAAAGAAU	0.291

Set 4 — method: protein binding microarray; form: double-stranded DNA, one strand shown; medium: in vitro; concentration: not given; relative to: not given; reading: higher = stronger binding
Target: Histone acetyltransferase KAT6A, winged helix 2, GST fusion (KAT6A, Homo sapiens, UniProt Q92794, residues 85-181)
Notes: 8-mer, flanks averaged, mean of 2 arrays, mostly near background
Construct (chain): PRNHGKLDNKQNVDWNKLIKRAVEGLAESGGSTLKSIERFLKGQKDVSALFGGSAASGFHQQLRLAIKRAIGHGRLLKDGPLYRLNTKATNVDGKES
Oligonucleotide	E-score
CTCCTTCA	-0.0775
CAGGAGGA	-0.0477
CTTAGAAG	-0.137
CAGTTGGC	-0.0105
CCCGTGAA	-0.113
AGAGCTTC	0.0482
CCGCGACA	0.0688
AATCAGTG	0.0952
AAAACGTG	-0.24
CTGTGTGA	-0.00382
CCTTCCAA	-0.107
ACCGTCTC	0.0335
TATCGAAA	0.0369
ACGAACTA	0.0355
CAAGCCCG	0.000715
ATGCAGGC	0.0367

Set 5 — method: protein-binding microarray; form: double-stranded DNA, one strand shown; medium: in vitro; concentration: 2540 nM top; notes: 60-bp whole probe; with: salmon DNA 0.4 mg/ml; relative to: random background probes; reading: higher = stronger binding; constant ends, left off below: GCCTAGCAC … GTCTTGATTCGCTTGACGCTGCTG
Target: Interferon regulatory factor 3, full length, phosphomimetic (IRF3, Homo sapiens, UniProt Q14653, residues 1-427, S386D/S396D/S398D/S402D/T404D/S405D)
Residues (chain): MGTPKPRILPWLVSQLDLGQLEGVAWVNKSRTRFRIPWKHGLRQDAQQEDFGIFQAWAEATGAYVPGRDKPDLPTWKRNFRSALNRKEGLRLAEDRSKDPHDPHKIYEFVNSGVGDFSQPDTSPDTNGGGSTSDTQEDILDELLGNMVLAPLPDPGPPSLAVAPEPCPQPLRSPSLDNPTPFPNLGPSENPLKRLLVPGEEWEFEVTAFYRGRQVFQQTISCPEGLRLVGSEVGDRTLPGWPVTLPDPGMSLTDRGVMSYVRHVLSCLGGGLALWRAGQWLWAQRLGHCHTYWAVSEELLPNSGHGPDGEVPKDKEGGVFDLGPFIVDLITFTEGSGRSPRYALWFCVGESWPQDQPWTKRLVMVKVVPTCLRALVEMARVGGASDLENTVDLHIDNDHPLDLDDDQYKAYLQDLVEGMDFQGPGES
Oligonucleotide	fitted relative affinity [z-score]
ACCTGAGTCCCTATCTCCTCGTGCTAG	0.456
TCAGCTATCACTATTCTACTGTGCTAG	0.859
GACGGTTTCCTTCTCCTAACGTGCTAG	10.2
TTAGATTTCGGATATCGATTAGTGCTA	2.76
GTTGGGGCGGGGCGGGGTGGGTGCTAG	0.0755
TTAGGTTTCGGACTGGCTTAGTGCTAG	4.26
TTAGATTTCGGCTATCGATTAGTGCTA	0.621
GACGCACTGAGTATCGAGACGTGCTAG	-0.0292
GCCGGTCTCGGACTGGGGACGTGCTAG	0.856
GACGGTTTCGACTTTCGGGCCGTGCTA	3.59
GACGATATCGAGTATCGAGACGTGCTA	0.233
TCAAGACTTGATTTTGGACTGTGCTAG	-0.674
GACTGTATCGACTATCGGGACGTGCTA	0.636
TCAAGCATGGATCTGGGACTGTGCTAG	-0.934
TTCGATATCGGGTTTCGATTAGTGCTA	2.11
TTAGGTATCGTTATCCTTTAGTGCTAG	3.43
TCATCTCTGGGTCGGGCACTGTGCTAG	0.352
GACGGTTTCCTTTTCCTGAAGTGCTAG	10.9
GACGATCTCAGTCTCGAGAAGTGCTAG	0.639
TCATTTCTGTGTCACAGACTGTGCTAG	2.2
GACGATCTCGGTTTCGGGACGTGCTAG	3.16
GACGGTATCGGGACTGGGGGCGTGCTA	1.93
GACGGTAACCTTCTCCTGACGTGCTAG	1.87
TTAGGACTGGACACTGGCTTAGTGCTA	-0.919
TTAGGTTTCGGTTCCAGTTAGTGCTAG	9.97
